# Published values from different studies.
# Values joined by “and” are separate records of one study, mostly repeats; a detail may differ. ± marks the error that the study gave.
Compound,assay,system,setting,how to read,measurement,result
CCN1CCN(Cc2ccc(Nc3ncc(F)c(-c4cc(F)c5nc6n(c5c4)[C@H](C)CCC6)n3)nc2)CC1,,advanced solid tumour patients,"dose not given, Phase Ia monotherapy",,"Hypercalcemia incidence, grade ≥3",0%
C1=Cc2nc1cc1ccc([n-]1)c(-c1ccccc1)c1nc(cc3ccc([n-]3)c2-c2ccccc2)C=C1.CC(=O)[O-].[Mn+3],LC-MS/MS,"Sprague-Dawley rat, plasma","oral gavage, dose not given, 360 min, individual rat Rat2",,plasma concentration,121 ng/mL
CCS(=O)(=O)Nc1ccc(Oc2ccc(F)cc2F)c(-c2cn(C)c(=O)c3[nH]ccc23)c1,platelet count decreased leading to discontinuation,"human, relapsed/refractory AML","oral, dose not given",,treatment-emergent adverse events,0%
C[C@]1(CO)Cc2ncn(-c3ccc(C#N)c(Cl)c3)c2C(=O)O1,,"healthy men, serum","dose not given, mean, generally within this range",relative to: baseline,change in serum potassium,5 to 6%
O=C(Nc1ccccc1)C1CCN(C(=O)Oc2cccnc2)CC1,item: skin disorders,healthy women,"oral, 60 mg, 7 days",,subjects with adverse event,0%
CO[C@H]1C[C@@H]2CC[C@@H](C)[C@@](O)(O2)C(=O)C(=O)N2CCCC[C@H]2C(=O)O[C@H]([C@H](C)C[C@@H]2CC[C@@H](OC(=O)NCCOCCOCCOCCOCCOCCOCCOCCOCCC(=O)N3CCc4cc(Cn5nc(-c6ccc7oc(N)nc7c6)c6c(N)ncnc65)ccc4C3)[C@H](OC)C2)C[C@@H](O)[C@H](C)/C=C(\C)[C@@H](O)[C@@H](OC)C(=O)[C@H](C)C[C@H](C)/C=C/C=C/C=C/1C,,patients with advanced solid tumours,"intravenous, 8 mg weekly, grade 3 or higher",,maculopapular rash incidence,6.3%
CCC[C@@](N)(CO)CCc1ccc(OCCCCCC(C)C)cc1,,"hound dogs, male","intravenous, 1.0 mg/kg, geometric mean",,volume of distribution (Vz),18 L/kg
CC(C)C[C@H](NC(=O)[C@H](CCCCN)NC(=O)OCC1c2ccccc2-c2ccccc21)C(=O)N[C@H](C(=O)N[C@@H](Cc1ccccc1)C(=O)N[C@@H](Cc1ccccc1)C(=O)N[C@@H](CCCCN)C(=O)NCC(=O)N[C@@H](Cc1ccccc1)C(=O)N[C@@H](C)C(=O)N[C@@H](Cc1c[nH]c2ccccc12)C(=O)N[C@@H](CC(N)=O)C(=O)N[C@H](C(=O)N[C@H]1CSSC[C@@H](C(=O)N[C@@H](Cc2c[nH]cn2)C(=O)N[C@@H](CCCNC(=N)N)C(=O)N[C@@H](CCCNC(=N)N)C(=O)N[C@@H](C)C(=O)N[C@@H](CC(N)=O)C(N)=O)NC(=O)[C@H](C(C)C)NC(=O)[C@H](CCCNC(=N)N)NC(=O)[C@H](C(C)C)NC(=O)CNC(=O)[C@H](CC(N)=O)NC(=O)[C@H](CCCNC(=N)N)NC(=O)[C@H](Cc2ccc(O)cc2)NC(=O)[C@H](C(C)C)NC1=O)C(C)C)C(C)C,HPLC,mouse mammary gland homogenate,"2560 µM, 6.00 h, 37 °C, 50 mg/mL tissue",,remaining peptide,79.5% and 82.4%
C=CC(=O)N1CC[C@H](n2nc(C#Cc3cc(OC)cc(OC)c3)c3c(N)ncnc32)C1,,patients with advanced solid tumours,"oral, dose not given, Diarrhea, any grade, QD, together with: ferric citrate hydrate",,adverse drug reaction incidence,100%
C[C@@H]1OC(=O)NN=C1c1ccc(-c2ccc(F)cc2)c(C(F)(F)F)c1,"phase I trial, item: Cough all grades",human patients,"dose not given, all dose groups",,patients with adverse event,20%
Cc1ncsc1CCCl,,male rat liver microsomes,"50 µM, 3 h, together with: DHA-Na 5 mg/L",,inhibition,1.6 ± 0.21%
[O-][S+]1CCc2nc(N3CCC(c4ncc(Cl)cn4)CC3)nc(NC3(CO)CCC3)c21 (centres unmarked),item: Dizziness,healthy male humans,36 mg single dose,,adverse event incidence,16.7%
CN1CCN(Cc2ccc(NC(=O)c3cncc(C#Cc4cnc(N)c5ncccc45)c3)cc2C(F)(F)F)CC1,,rat,"oral, dose not given",,oral bioavailability,~30%
COc1ccc(C[C@@H]2NC(=O)[C@H]([C@@H](C)O)NC(=O)[C@@H]3[C@@H]4CCN3C(=O)[C@@H]3Cc5cn(c6ccc(F)cc56)CCCCCCN(Cc5ccc(cc5)CCNC(=O)[C@]5(C)CCCN5C2=O)C(=O)CCC(=O)N[C@@H](C)C(=O)N[C@H](CNC(=O)CCCCC[N+](C)(C)C)C(=O)N[C@@H](Cc2cccc(c2)CNC(=O)CO4)C(=O)N3)cc1,item: Somnolence,humans,"concentration not given, Study-003",,participants with adverse event,0%
CC(=O)c1c(C)c2cnc(Nc3ccc(C4CCN(CCS(C)(=O)=O)CC4)cn3)nc2n(C2CCCC2)c1=O,,rat,acute toxicity,,LOAEL,350 mg/kg
COc1ccc2nc3cc(Cl)ccc3c(Nc3cc(CN4CCCC4)c(O)c(CN4CCCC4)c3)c2n1,,"mouse, blood","intraperitoneal, 28 mg/kg",,neutrophil count,1.54 10⁹/L
O=C1Nc2cc3[nH]nc(-c4ccncc4)c3cc2CN1Cc1ccccc1,CTCAE v4.03,advanced solid tumour patients,"intravenous, 1.8 mg/kg, schedules 1/2",,patients with diarrhoea,0%
COc1ncccc1-c1cnn2ccc(N3CCN(C(=O)OC(C)C)CC3)nc12,,"mouse, spinal nerve ligation model, plasma","oral, 30 mg/kg, 30 min",,free plasma concentration,180 nM
CN1CC[C@@H](c2c(O)cc(O)c3c(=O)cc(-c4ccc(C(F)(F)F)cc4Cl)oc23)[C@@H]1CO,item: Diarrhea,AML,"oral, 100 mg, intermittent dosing",,patients with adverse event,33.3%
O=S(=O)(Nc1ccccc1)c1ccc(NC(=S)Nc2ccccc2)cc1,,"mouse, male, blood","oral, 20 mg/kg daily, 14 days",,mean corpuscular haemoglobin concentration,32.8 g/dL
CNC(=O)c1c(C)oc2cc(Oc3ccnc4cc(OCCN5CCOCC5)ccc34)ccc12,,"patients, plasma",,,time to steady state,≤ 15 days
CC(C)[C@@H]1CC[C@@H](C)C[C@@H]1O,acute oral toxicity OECD,"Swiss albino mice, serum","oral, 1000 mg/kg",,lactate dehydrogenase,81 ± 7.13 mg/dL
Brc1ccc(Oc2cc(Br)c(Br)cc2Br)c(Br)c1,ultrafiltration,cow milk whey,2000 nM nominal in whole milk,,final permeate concentration,7.57 nM
CC1=C(O)C(=O)C=C2C1=CC=C1[C@@]2(C)CC[C@@]2(C)[C@@H]3C[C@](C)(C(=O)O)CC[C@]3(C)CC[C@]12C,,rat Sprague-Dawley male,"intraperitoneal, 4 mg/kg single dose, 2 h",relative to: neocortex over plasma,tissue/plasma ratio,> 1
O=C(O)CCCOc1ccc(F)cc1-c1cc(-c2ccccc2C(F)(F)F)n(-c2ccccc2)n1,item: TG,"Crl:CD(SD) rats, female, blood","iv, 25 µg/kg, 14 days",,blood chemistry,15.1 ± 7.3 mg/dL
c1cc2ccc3cccc4ccc(c1)c2c34,,pooled human liver microsomes,"2.5 µM, pH 7.4",,metabolism rate,123 pmol/min/mg
COc1ccnc(C(=O)N[C@H]2COC(=O)[C@H](Cc3ccccc3)[C@@H](OC(=O)C(C)C)[C@H](C)OC2=O)c1OCOC(=O)C(C)C,,"Swiss Lake sand sediment, aerobic dark",20 °C,,DT50 whole system,1.69 days
O=[N+]([O-])c1ccc2c(c1)S(=O)(=O)C=C2,,"male C57BL/6 mice, blood","intraperitoneal, 10 mg/kg, day 8, group average",,mean platelet volume,5.37 fL
O=c1cc(-c2ccc(O)c(O)c2)oc2cc(O)cc(O)c12,,"male Sprague-Dawley rat, lean","oral, 100 mg/kg of neohesperidin, 24 to 36 h",,faecal excreted amount,4.05 ± 2.47 ng
COc1ccc(-c2c(-c3ccc(C#N)c(F)c3)nc(N3CCC(N)CC3)n(C)c2=O)cc1F,item: Diarrhea,neuroendocrine neoplasm patients,"oral, 60 mg, any grade, dose expansion",,treatment-related adverse event incidence,19%
Cn1c(-c2ccc(C(N)=O)cc2F)nnc1C(C)(C)Oc1c(F)cc(Cl)cc1F,,human,"oral, 30 mg, single ascending dose",,subjects with any TEAE,33.3%
C=CC(=O)Nc1cc(Nc2nccc(Nc3cc(Cl)c(F)cc3C(C)(C)O)n2)c(OC)cc1N1CC[C@@H](N(C)C)C1,,human patients,"oral, 100 mg, treatment-emergent adverse events",,patients with decreased appetite,33.3%
CC[C@H](C)[C@H](NC(=O)[C@H](CC(C)C)NC(=O)[C@H](Cc1c[nH]c2ccccc12)NC(=O)[C@H](CCC(N)=O)NC(=O)[C@@H](NC(=O)[C@H](Cc1ccccc1)NC(=O)[C@H](C)NC(=O)[C@H](CCCCNC(=O)COCCOCCNC(=O)COCCOCCNC(=O)CC[C@H](NC(=O)CCCCCCCCCCCCCCCCCCC(=O)O)C(=O)O)NC(=O)[C@H](CCC(N)=O)NC(=O)[C@H](C)NC(=O)[C@@H](NC(=O)[C@H](CCCCN)NC(=O)[C@H](CC(=O)O)NC(=O)[C@H](CC(C)C)NC(=O)C(C)(C)NC(=O)[C@@H](NC(=O)[C@H](CO)NC(=O)[C@H](Cc1ccc(O)cc1)NC(=O)[C@H](CC(=O)O)NC(=O)[C@H](CO)NC(=O)[C@@H](NC(=O)[C@H](Cc1ccccc1)NC(=O)[C@@H](NC(=O)CNC(=O)[C@H](CCC(=O)O)NC(=O)C(C)(C)NC(=O)[C@@H](N)Cc1ccc(O)cc1)[C@@H](C)O)[C@@H](C)O)[C@@H](C)CC)[C@@H](C)CC)C(C)C)C(=O)N[C@@H](C)C(=O)NCC(=O)NCC(=O)N1CCC[C@H]1C(=O)N[C@@H](CO)C(=O)N[C@@H](CO)C(=O)NCC(=O)N[C@@H](C)C(=O)N1CCC[C@H]1C(=O)N1CCC[C@H]1C(=O)N1CCC[C@H]1C(=O)N[C@@H](CO)C(N)=O,,"human, plasma","subcutaneous, 5 mg first dose, week 1, 5 mg group, tau 168 h, geometric mean",,AUC(0-tau),48800 ng·h/mL
CC(C)c1nc(N(C)S(C)(=O)=O)nc(-c2ccc(F)cc2)c1/C=C/[C@@H](O)C[C@@H](O)CC(=O)O,,healthy human subjects,"oral, dose not given, study CL-0537 safety set",,incidence of Headache,0%
COc1cc2c(Oc3ccc4[nH]c(C)cc4c3F)ccnc2cc1OCC1(N)CC1,,paediatric recurrent refractory sarcoma,8 mg,,grade 3 AST elevation,0%
CC(C)[C@@H]1NC(=O)CNC(=O)[C@H](CC(N)=O)NC(=O)[C@H](CCCNC(=N)N)NC(=O)[C@H](Cc2ccc(O)cc2)NC(=O)[C@H](C(C)C)NC(=O)[C@@H](NC(=O)[C@@H](NC(=O)[C@H](CC(N)=O)NC(=O)[C@H](Cc2c[nH]c3ccccc23)NC(=O)[C@H](C)NC(=O)[C@H](Cc2ccccc2)NC(=O)CN)C(C)C)CSSC[C@@H](C(=O)N[C@@H](Cc2cnc[nH]2)C(=O)N[C@@H](CCCNC(=N)N)C(=O)N[C@@H](CCCNC(=N)N)C(=O)N[C@@H](C)C(=O)N[C@@H](CC(N)=O)C(N)=O)NC(=O)[C@H](C(C)C)NC(=O)[C@H](CCCNC(=N)N)NC1=O,,"ICR mice, blood","intraperitoneal, 10 mg/kg, day 5",,mean platelet volume,6.33 ± 0.27 fL
CC1(C)[C@H](C=C(Cl)Cl)[C@H]1C(=O)OCc1cccc(Oc2ccccc2)c1,item: CYP2B6,"human, age 6 months, recombinant human CYP2B6",0.1 µM,,enzyme contribution to clearance,0.04%
O=c1nc(NO)ccn1[C@@H]1O[C@H](CO)[C@@H](O)[C@H]1O,,rat fetus dialysate,"25 ng/mL, 6 h, room temperature, low concentration, together with: molnupiravir 5 ng/mL",,bench-top stability,106 ± 6.34%
